Published values pooled from the literature.
± marks the error that the study gave.

Structure (SMILES) | assay | system | setting | how to read | endpoint | value
N=C(N)NCCC[C@@H]1NC(=O)[C@H](CCCCNC(=O)CCOCCOCCOCCOCCNC(=O)CC[C@H](NC(=O)CCOCCOCCOCCOCCNC(=O)CC[C@H](NC(=O)CN2CCN(CC(=O)O)CCN(CC(=O)O)CCN(CC(=O)O)CC2)C(=O)NCCOCCOCCOCCOCCC(=O)N[C@@H](CCC(=O)NCCOCCOCCOCCOCCC(=O)NCCCC[C@@H]2NC(=O)[C@@H](Cc3ccccc3)NC(=O)[C@H](CC(=O)O)NC(=O)CNC(=O)[C@H](CCCNC(=N)N)NC2=O)C(=O)NCCOCCOCCOCCOCCC(=O)NCCCC[C@@H]2NC(=O)[C@@H](Cc3ccccc3)NC(=O)[C@H](CC(=O)O)NC(=O)CNC(=O)[C@H](CCCNC(=N)N)NC2=O)C(=O)NCCOCCOCCOCCOCCC(=O)NCCCC[C@@H]2NC(=O)[C@@H](Cc3ccccc3)NC(=O)[C@H](CC(=O)O)NC(=O)CNC(=O)[C@H](CCCNC(=N)N)NC2=O)NC(=O)[C@@H](Cc2ccccc2)NC(=O)[C@H](CC(=O)O)NC(=O)CNC1=O [indium-111 labelled] |  | female athymic nude mice, muscle | intravenous, 3 µCi, 72 h, U-87 MG glioma xenograft |  | tissue uptake | 0.23 ± 0.05 %ID/g
CSCC[C@H](NC(=O)[C@H](CC(C)C)NC(=O)[C@H](Cc1c[nH]cn1)NC(=O)CNC(=O)[C@@H](NC(=O)[C@H](C)NC(=O)[C@H](Cc1c[nH]c2ccccc12)NC(=O)[C@H](CCC(N)=O)NC(=O)CCCCCNC(=O)CN1CCN(CC(=O)O)CCN(CC(=O)O)CC1)C(C)C)C(N)=O [gallium-68 labelled] | radio-HPLC | nude mice, PC-3 tumour, tumour homogenate | intravenous, 37 MBq, 30 min |  | intact parent | ~28.5%
CCCC[C@H](NC(=O)CNC(=O)CNC(=O)c1ccc(NN)nc1)C(=O)N[C@H]1CC(=O)NCCCC[C@@H](C(N)=O)NC(=O)[C@H](Cc2c[nH]c3ccccc23)NC(=O)[C@H](CCCNC(=N)N)NC(=O)[C@@H](Cc2ccccc2)NC(=O)[C@H](Cc2c[nH]cn2)NC1=O [technetium-99m labelled] |  | C57 mouse, B16/F1 melanoma, pancreas | 2 h, with: L-lysine 12 mg |  | uptake | 0.13 ± 0.04 %ID/g
C[C@H](NC(=O)CNC(=O)[C@H](CCC(=O)O)NC(=O)[C@H](CCC(=O)O)NC(=O)[C@H](CC(=O)O)NC(=O)[C@@H]1CCCN1C(=O)[C@H](Cc1ccccc1)NC(=O)[C@H](CS)NC(=O)[C@H](Cc1ccc(O)cc1)NC(=O)CCCNC(=O)CNC(=O)CNC(=O)[C@@H](C)NC(=O)CN)C(=O)N[C@@H](CS)C(=O)N[C@@H](Cc1ccc(O)cc1)C(N)=O [technetium-99m labelled] |  | KM mice, kidney | intravenous, dose not given, 120 min | relative to: 10 min value | decrease of kidney radioactivity | 77%
N=C(N)NCCC[C@@H]1NC(=O)[C@H](CC(=O)NC23CNCCNCC(N)(CNCCNC2)CNCCNC3)NC(=O)[C@@H](Cc2ccccc2)NC(=O)[C@H](CC(=O)O)NC(=O)CNC1=O [copper-64 labelled] |  | Nu/Nu mouse, male, tumour-bearing, lung | intravenous, 10 µCi, 1 h |  | tissue uptake | 1.59 ± 0.29 %ID/g
CCCC[C@H](NC(=O)CCCCCCCNC(=O)c1ccc(NN)nc1)C(=O)N[C@H]1CC(=O)NCCCC[C@@H](C(N)=O)NC(=O)[C@H](Cc2c[nH]c3ccccc23)NC(=O)[C@H](CCCNC(=N)N)NC(=O)[C@@H](Cc2ccccc2)NC(=O)[C@H](Cc2c[nH]cn2)NC1=O [technetium-99m labelled] |  | C57 mouse, B16/F1 melanoma, kidneys | intravenous, 4 h |  | uptake | 6.1 ± 0.72 %ID/g
N=C(N)NCCC[C@@H]1NC(=O)[C@H](CCCCNC(=O)CC[C@H](NC(=O)CCOCCOCCOCCOCCNC(=O)CC[C@H](NC(=O)CN2CCN(CC(=O)O)CCN(CC(=O)O)CCN(CC(=O)O)CC2)C(=O)NCCOCCOCCOCCOCCC(=O)N[C@@H](CCC(=O)NCCCC[C@@H]2NC(=O)[C@@H](Cc3ccccc3)NC(=O)[C@H](CC(=O)O)NC(=O)CNC(=O)[C@H](CCCNC(=N)N)NC2=O)C(=O)NCCCC[C@@H]2NC(=O)[C@@H](Cc3ccccc3)NC(=O)[C@H](CC(=O)O)NC(=O)CNC(=O)[C@H](CCCNC(=N)N)NC2=O)C(=O)NCCCC[C@@H]2NC(=O)[C@@H](Cc3ccccc3)NC(=O)[C@H](CC(=O)O)NC(=O)CNC(=O)[C@H](CCCNC(=N)N)NC2=O)NC(=O)[C@@H](Cc2ccccc2)NC(=O)[C@H](CC(=O)O)NC(=O)CNC1=O [indium-111 labelled] |  | female athymic nude mice, brain | intravenous, 3 µCi, 0.5 h, U-87 MG glioma xenograft |  | tissue uptake | 0.1 ± 0.01 %ID/g
CCCC[C@H](NC(=O)[C@H](Cc1cccs1)NC(=O)[C@H](Cc1c[nH]cn1)NC(=O)CCNC(=O)[C@@H](NC(=O)[C@H](C)NC(=O)[C@H](Cc1c[nH]c2ccccc12)NC(=O)[C@H](CCC(N)=O)NC(=O)[C@H](Cc1cccs1)NC(=O)CN1CCC(NC(=O)CN(CCN(CCN(CC(=O)O)CC(=O)O)CC(=O)O)CC(=O)O)CC1)C(C)C)C(N)=O [indium-111 labelled] |  | Swiss nu/nu mouse, male, PC-3 tumour xenograft, colon | intravenous, 10 pmol, 24 h |  | tissue uptake | 0.8 ± 0.2 %ID/g
CC(C)C[C@H](NC(=O)[C@@H]1CCCN1C(=O)[C@H](CCCCN)NC(=O)[C@@H](N)CO)C(=O)N1CCC[C@H]1C(=O)N[C@@H](CCC(=O)O)C(=O)N[C@H](C(=O)N[C@H](C(=O)N[C@@H](CC(=O)O)C(=O)N[C@@H](CCC(=O)O)C(=O)N[C@@H](Cc1ccc(O)cc1)C(=O)N[C@@H](Cc1cn(CCOCCOCCOCCNC(=O)CCc2ccc(O)c(CN(CCN(CC(=O)O)Cc3cc(CCC(=O)NCCCC[C@H](NC(=O)N[C@@H](CCC(=O)O)C(=O)O)C(=O)O)ccc3O)CC(=O)O)c2)nn1)C(=O)O)[C@@H](C)O)C(C)C [gallium-68 labelled] |  | NMRI nu/nu mouse, LNCaP xenograft, femur | 10 MBq, high molar activity |  | SUV | 0.06 g/g
N=C(N)NCCC[C@@H]1NC(=O)[C@H](CCCCNC(=O)CCOCCOCCOCCOCCNC(=O)CN2CCN(CC(=O)O)CCN(CC(=O)O)CCN(CC(=O)O)CC2)NC(=O)[C@@H](Cc2ccccc2)NC(=O)[C@H](CC(=O)O)NC(=O)CNC1=O [indium-111 labelled] |  | female athymic nude mice, intestine | intravenous, 3 µCi, 24 h, U-87 MG glioma xenograft |  | tissue uptake | 0.91 ± 0.33 %ID/g

Excerpt of the above:
Structure (SMILES) | assay | system | setting | how to read | endpoint | value
CCCC[C@H](NC(=O)[C@H](Cc1cccs1)NC(=O)[C@H](Cc1c[nH]cn1)NC(=O)CCNC(=O)[C@@H](NC(=O)[C@H](C)NC(=O)[C@H](Cc1c[nH]c2ccccc12)NC(=O)[C@H](CCC(N)=O)NC(=O)[C@H](Cc1cccs1)NC(=O)CN1CCC(NC(=O)CN(CCN(CCN(CC(=O)O)CC(=O)O)CC(=O)O)CC(=O)O)CC1)C(C)C)C(N)=O [indium-111 labelled] |  | Swiss nu/nu mouse, male, PC-3 tumour xenograft, colon | intravenous, 10 pmol, 24 h |  | tissue uptake | 0.8 ± 0.2 %ID/g
CC(C)C[C@H](NC(=O)[C@@H]1CCCN1C(=O)[C@H](CCCCN)NC(=O)[C@@H](N)CO)C(=O)N1CCC[C@H]1C(=O)N[C@@H](CCC(=O)O)C(=O)N[C@H](C(=O)N[C@H](C(=O)N[C@@H](CC(=O)O)C(=O)N[C@@H](CCC(=O)O)C(=O)N[C@@H](Cc1ccc(O)cc1)C(=O)N[C@@H](Cc1cn(CCOCCOCCOCCNC(=O)CCc2ccc(O)c(CN(CCN(CC(=O)O)Cc3cc(CCC(=O)NCCCC[C@H](NC(=O)N[C@@H](CCC(=O)O)C(=O)O)C(=O)O)ccc3O)CC(=O)O)c2)nn1)C(=O)O)[C@@H](C)O)C(C)C [gallium-68 labelled] |  | NMRI nu/nu mouse, LNCaP xenograft, femur | 10 MBq, high molar activity |  | SUV | 0.06 g/g
